Published values collected from several papers.
Lines come from different studies, so protocols differ. ± marks the error that the study gave.

SMILES	target or system	test	test system	conditions	scale	endpoint	result
O=C(N[C@@H](CC1CCCCC1)C(=O)N[C@@H](C[C@@H]1CCNC1=O)C(O)S(=O)(=O)O)OCc1cccc(Cl)c1 (stereo partly drawn)	feline coronavirus	viral replication	CRFK, FIPV-1146	36 h		EC50	0.05 ± 0.02 µM
Oc1ccccc1C1=NN(c2ccccc2)C(c2cccc(C(F)(F)F)c2)C1 (stereo not drawn)	MCF7	cell viability, MTT		72 h		EC50	> 500 µM
NCCCN1CC(=O)N(Cc2ccccc2)CC(=O)N(CCCN)CC(=O)N(Cc2ccccc2)CC(=O)N(CCCN)CC(=O)N(Cc2ccccc2)CC(=O)N(CCCN)CC(=O)N(Cc2ccccc2)CC(=O)N(CCCN)CC(=O)N(Cc2ccccc2)CC1=O		X-ray reflectivity	DPPG monolayer headgroups			extra electrons per lipid	134 ± 7
O=C[C@H](C[C@@H]1CCNC1=O)NC(=O)[C@H](CC1CCCCC1)NS(=O)(=O)c1ccc(Cl)cc1	feline coronavirus	viral replication	CRFK, FIPV-1146	36 h		EC50	0.39 ± 0.03 µM
CCCCCC(=O)OCn1cc(F)c(=O)[nH]c1=O	Caco-2	cell growth or viability, MTT		48 h		IC50	10.8 µM
O=C[C@H](C[C@@H]1CCNC1=O)NC(=O)[C@H](CC1CCCCC1)NC(=O)OCc1ccccc1	feline coronavirus	viral replication	CRFK, FIPV-1146	36 h		EC50	0.07 ± 0.06 µM
O=C(O)COc1ccc(Br)cc1C=NNC(=O)Cc1ccccc1 (mixture of isomers)		Racine scale 0-5	male mice, pilocarpine-induced seizures	oral, 20 mg/kg, 0.5 h after pilocarpine, unit not given, with: pilocarpine 300 mg/kg i.p.	higher = more severe	seizure severity	2.3 ± 0.48
CCN(CC)c1ccc(C2CC(c3ccccc3O)=NN2c2ccccc2)cc1 (stereo not drawn)	MCF7	cell viability, MTT		72 h		EC50	250 ± 0.09 µM
CC(C)C[C@H](NC(=O)[C@@H](NC(=O)[C@H](CCCNC(=N)N)NS(=O)(=O)Cc1ccccc1)C(C)C)[C@@H](O)CC(=O)NCCc1ccccc1	Plasmodium falciparum	parasite growth	3D7	72 h, blood stage		EC50	7.44 µM
Oc1ccccc1C1=NN(c2ccccc2)C(c2cccs2)C1 (stereo not drawn)	MCF7	cell viability, MTT		72 h		EC50	> 500 µM
NCCCN1CC(=O)N(CC(c2ccccc2)c2ccccc2)CC(=O)N(CCCN)CC(=O)N(CC(c2ccccc2)c2ccccc2)CC(=O)N(CCCN)CC(=O)N(CC(c2ccccc2)c2ccccc2)CC1=O		epifluorescence microscopy	DPPG monolayer			time to monolayer disruption	< 5 min
Oc1ccccc1C1=NN(c2ccccc2)C(c2ccc(F)cc2)C1 (stereo not drawn)	MCF7	cell viability, MTT		72 h		EC50	> 500 µM
CC(C)C[C@@H]1NC(=O)[C@H](CCCN)NC(=O)[C@H](C(C)C)NC(=O)[C@@H]2CCCN2C(=O)[C@@H](Cc2ccccc2)NC(=O)[C@H](CC(C)C)NC(=O)[C@H](CCCN)NC(=O)[C@H](C(C)C)NC(=O)[C@@H]2CCCN2C(=O)[C@@H](Cc2ccccc2)NC1=O		X-ray reflectivity	DPPG monolayer tails			extra electrons per lipid	34 ± 3
O=C(O)COc1ccccc1/C=N/NC(=O)CNc1ccc(Cl)cc1		Racine scale 0-5	male mice, pilocarpine-induced seizures	oral, 20 mg/kg, 1 h after pilocarpine, unit not given, with: pilocarpine 300 mg/kg i.p.	higher = more severe	seizure severity	3.2 ± 0.63
NCCCN1CC(=O)N(Cc2ccccc2)CC(=O)N(CCCN)CC(=O)N(Cc2ccccc2)CC(=O)N(CCCN)CC(=O)N(Cc2ccccc2)CC1=O		X-ray reflectivity	DPPG monolayer headgroups			extra electrons per lipid	61 ± 5
CN(C)c1ccc(C2CC(c3ccccc3O)=NN2c2ccccc2)cc1 (stereo not drawn)	MCF7	cell viability, MTT		72 h		EC50	> 500 µM
NCCCN1CC(=O)N(Cc2cc(C(F)(F)F)cc(C(F)(F)F)c2)CC(=O)N(CCCN)CC(=O)N(Cc2cc(C(F)(F)F)cc(C(F)(F)F)c2)CC(=O)N(CCCN)CC(=O)N(Cc2cc(C(F)(F)F)cc(C(F)(F)F)c2)CC1=O		X-ray reflectivity	DPPG monolayer headgroups			extra electrons per lipid	188 ± 8
N#Cc1ccc(C2CC(c3ccccc3O)=NN2c2ccccc2)cc1 (stereo not drawn)	HeLa	cell viability, MTT		72 h		EC50	> 500 µM
O=C1Nc2ccc(S(=O)(=O)Nc3ccccc3)cc2C1=C1CCCC1	RAW264.7	measured: TNF-α		concentration not given, with: LPS 100 ng/mL, 24 h		mRNA level	decreased
Cc1ccc(C(=O)N/N=C/c2cc(Br)ccc2OCC(=O)O)cc1		Racine scale 0-5	male mice, pilocarpine-induced seizures	oral, 20 mg/kg, 1 h after pilocarpine, unit not given, with: pilocarpine 300 mg/kg i.p.	higher = more severe	seizure severity	2.8 ± 0.63
Oc1ccccc1C1=NN(c2ccccc2)C(c2ccccc2C(F)(F)F)C1 (stereo not drawn)	HeLa	cell viability, MTT		72 h		EC50	> 500 µM

Some of these lines once more:
SMILES	target or system	test	test system	conditions	scale	endpoint	result
CC(C)C[C@@H]1NC(=O)[C@H](CCCN)NC(=O)[C@H](C(C)C)NC(=O)[C@@H]2CCCN2C(=O)[C@@H](Cc2ccccc2)NC(=O)[C@H](CC(C)C)NC(=O)[C@H](CCCN)NC(=O)[C@H](C(C)C)NC(=O)[C@@H]2CCCN2C(=O)[C@@H](Cc2ccccc2)NC1=O		X-ray reflectivity	DPPG monolayer tails			extra electrons per lipid	34 ± 3
